Measurements pooled from the literature.
Numbered parts are unrelated; each lists some results of a single study. Substitutions count along the parent as printed.

Block 1
Target: Myc proto-oncogene protein, bHLH-zipper, MAX partner unstated (MYC, Homo sapiens, UniProt P01106, residues 368-449)
Sequence of UniProt P01106 (368-449, looked up): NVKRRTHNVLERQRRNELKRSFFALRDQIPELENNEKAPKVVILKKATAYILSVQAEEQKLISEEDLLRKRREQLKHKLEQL
Technique: protein-binding microarray
Form: double-stranded DNA, one strand shown
Medium: in vitro
Tested at: not given
Notes: k-mer, scored over probes, only values ≥0.25
Direction: higher = stronger binding
Quantity: E-score
AGCCATGC: 0.437
CAACGTGA: 0.348
GCGCTGCA: 0.268
CGACATGA: 0.253
AGTCCATG: 0.27
ATGGGGCG: 0.32
GAACATGC: 0.399
ATGTGCCA: 0.298
GGCGTGCA: 0.348
AATGTGGC: 0.293
ACACGCTC: 0.299
CGTGCAAA: 0.285
CACGTTAG: 0.326
ACCCCACC: 0.321
AACATGGC: 0.255
ACCATGCT: 0.43
ACACGGGG: 0.38
ATGCGCGC: 0.273
CATGAGTA: 0.254
CATGCGTC: 0.431
CATGCTCC: 0.394

Block 2
Target: Sal-like protein 4, full length isoform A (SALL4, Homo sapiens, UniProt Q9UJQ4, residues 1-1053)
Sequence of UniProt Q9UJQ4 (whole entry, looked up): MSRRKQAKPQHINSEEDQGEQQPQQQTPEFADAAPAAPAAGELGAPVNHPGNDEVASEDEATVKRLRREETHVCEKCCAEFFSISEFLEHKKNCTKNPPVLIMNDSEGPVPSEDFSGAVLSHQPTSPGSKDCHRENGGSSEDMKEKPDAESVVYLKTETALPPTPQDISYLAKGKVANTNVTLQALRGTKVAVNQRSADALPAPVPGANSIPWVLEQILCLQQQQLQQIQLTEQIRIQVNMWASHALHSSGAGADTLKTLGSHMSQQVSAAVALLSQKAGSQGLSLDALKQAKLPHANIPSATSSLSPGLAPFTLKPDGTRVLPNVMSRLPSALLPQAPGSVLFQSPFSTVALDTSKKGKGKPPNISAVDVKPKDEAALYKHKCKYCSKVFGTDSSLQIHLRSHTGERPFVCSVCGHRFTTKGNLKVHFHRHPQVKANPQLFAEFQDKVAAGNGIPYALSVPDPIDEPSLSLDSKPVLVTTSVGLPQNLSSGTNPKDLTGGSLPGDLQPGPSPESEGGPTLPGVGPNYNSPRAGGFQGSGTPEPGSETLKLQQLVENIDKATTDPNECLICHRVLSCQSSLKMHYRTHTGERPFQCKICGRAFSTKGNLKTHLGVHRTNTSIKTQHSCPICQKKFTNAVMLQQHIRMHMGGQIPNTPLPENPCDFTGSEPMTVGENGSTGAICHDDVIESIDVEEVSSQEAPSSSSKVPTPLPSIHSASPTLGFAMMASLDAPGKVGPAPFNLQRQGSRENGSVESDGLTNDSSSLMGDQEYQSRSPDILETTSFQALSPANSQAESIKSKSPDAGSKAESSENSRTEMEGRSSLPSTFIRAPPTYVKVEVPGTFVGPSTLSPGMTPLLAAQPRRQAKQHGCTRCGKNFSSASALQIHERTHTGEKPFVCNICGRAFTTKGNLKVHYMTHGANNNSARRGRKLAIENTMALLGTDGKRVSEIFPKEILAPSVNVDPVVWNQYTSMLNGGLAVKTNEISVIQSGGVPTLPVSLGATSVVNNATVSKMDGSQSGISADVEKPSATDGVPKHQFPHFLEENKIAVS
Technique: universal PBM
Form: double-stranded DNA, one strand shown
Medium: in vitro
Tested at: 600 nM
Notes: 8-mer, flanks averaged, mean of replicates
Direction: higher = stronger binding
Quantity: E-score
CCAATCAG: -0.221
AACGGCCA: -0.0441
AGTGTTCC: -0.00538
ACGATCCT: -0.042
CTCAGATC: -0.0184
ACTACTAC: 0.103
TCAGAAGA: -0.0361
GTGTTGAA: 0.023
ATTACTCG: 0.208
CTCGACTA: -0.0352
CCTTAGGA: -0.0538
CTAAATAA: 0.311
CTGGCCAC: -0.184
ACAACCCG: -0.13
ACGGGTTG: -0.182
ATTCCCTA: 0.14
ACAGAGAA: 0.0319
AAAGTACG: 0.14
AGCGCAAT: 0.0897
CTAACACA: 0.0851
TACCCGAA: 0.119
GAGAATAC: 0.127
ACCCATTG: -0.032
CTCGCAGC: -0.107
ACGGGAAC: -0.197

Block 3
Target: Interferon regulatory factor 7, full length, phosphomimetic (IRF7, Homo sapiens, UniProt Q92985, residues 1-503, S101K/S471D/S472D/S475D/S476D/S477D/S483D/S484D/S487D)
Sequence of UniProt Q92985 (whole entry, unmodified, looked up): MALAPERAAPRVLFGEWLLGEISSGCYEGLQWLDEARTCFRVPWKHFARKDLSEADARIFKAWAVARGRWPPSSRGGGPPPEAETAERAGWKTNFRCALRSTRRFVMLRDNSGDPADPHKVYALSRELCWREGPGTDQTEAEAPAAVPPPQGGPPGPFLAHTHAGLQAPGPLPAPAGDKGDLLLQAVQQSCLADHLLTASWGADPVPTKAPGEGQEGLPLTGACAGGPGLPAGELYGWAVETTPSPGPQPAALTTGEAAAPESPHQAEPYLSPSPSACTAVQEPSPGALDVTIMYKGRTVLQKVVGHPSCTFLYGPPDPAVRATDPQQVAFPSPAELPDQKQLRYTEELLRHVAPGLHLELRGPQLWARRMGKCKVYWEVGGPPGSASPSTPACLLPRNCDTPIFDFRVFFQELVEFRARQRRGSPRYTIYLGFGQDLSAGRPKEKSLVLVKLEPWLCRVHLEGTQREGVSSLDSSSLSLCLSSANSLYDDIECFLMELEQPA
Technique: protein-binding microarray
Form: double-stranded DNA, one strand shown
Medium: in vitro
Tested at: 250 nM
Notes: 60-bp whole probe
With: salmon DNA 0.4 mg/ml
Relative to: random background probes
Direction: higher = stronger binding
Quantity: log fluorescence
Constant ends, left off below: GCCTAGCAC … GTCTTGATTCGCTTGACGCTGCTG
TTAGTTTTCGGGACTGGATTAGTGCTA: 1.39 z-score
TTAGTTTTCGGTATCGGTTAGTGCTAG: 5.75 z-score
TTAGGACTGGTGTTTCGGTTAGTGCTA: 3.77 z-score
GACGAACTGGGAACTGGAGACGTGCTA: -0.253 z-score
TTCGATATCAGTCTCGATTAGTGCTAG: 1.53 z-score
GACGGTTTCGGGACTGGGGACGTGCTA: 4.02 z-score
TTACGACTGGGGTTTCGGTTAGTGCTA: 4.97 z-score
GGACCGCGACCTGCCAAGTCGTGCTAG: -0.122 z-score
TCTTTTCTGTTGTCTGTGTTTGTGCTA: 2.85 z-score
GTGTGTCTGATTATTTACATGTGCTAG: -0.0794 z-score
TTAGGTTTAGGGTATCGGTTAGTGCTA: 0.625 z-score
TTAGCTATCGGACTGGGTTAGTGCTAG: -0.258 z-score
TTAGGCTTCGGTCTCGGTTAGTGCTAG: 1.39 z-score
TTAGGTCTCGGACTAGGTTAGTGCTAG: 0.679 z-score
TCAGTCATCTATAATGGAACTGTGCTA: 0.0457 z-score
GAGGGTATCGGTATCGGGACGTGCTAG: 0.558 z-score
GGTCTTCTGGGCTGTTTGGTTGTGCTA: -0.63 z-score
GACGATTTCGGGTTTCAAGACGTGCTA: 1.85 z-score
TGCTGTGTACATCTCTCTTAGTGCTAG: -0.629 z-score

Block 4
Target: ABI1, truncated, D143A, DHFR fusion (Arabidopsis thaliana)
Technique: DHFR PCA, deep sequencing
Medium: yeast
Notes: methotrexate growth selection, single substitutions
With: (+)-ABA 710 µM
Relative to: wild-type fitted maximum
Direction: higher = stronger binding
Quantity: relative binding score
Starting sequence: PYL1, truncated, DHFR fusion (Arabidopsis thaliana); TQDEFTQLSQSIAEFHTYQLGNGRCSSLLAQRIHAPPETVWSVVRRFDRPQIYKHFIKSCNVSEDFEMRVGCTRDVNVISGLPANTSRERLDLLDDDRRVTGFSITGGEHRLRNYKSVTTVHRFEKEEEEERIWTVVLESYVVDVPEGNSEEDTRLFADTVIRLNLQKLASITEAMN; partner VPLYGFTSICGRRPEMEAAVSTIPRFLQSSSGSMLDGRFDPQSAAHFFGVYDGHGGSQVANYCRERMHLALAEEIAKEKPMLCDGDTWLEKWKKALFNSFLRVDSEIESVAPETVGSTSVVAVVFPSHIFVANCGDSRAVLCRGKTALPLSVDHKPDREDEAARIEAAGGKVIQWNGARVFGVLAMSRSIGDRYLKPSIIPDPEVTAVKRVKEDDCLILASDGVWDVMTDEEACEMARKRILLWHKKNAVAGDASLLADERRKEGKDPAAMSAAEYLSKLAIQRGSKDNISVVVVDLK
L8K: 77.2%
L94R: 65.2%
L169Y: 3.32%
R98P: 31.5%
L138Y: 97.4%
E38I: 66.3%
T154P: 31.2%
W41S: -15.9%
C60D: 5.22%
L93E: 101%
T17D: 91.9%
G148D: 95.2%
E89H: 21.5%
T1E: 102%
I79F: 104%
T135M: 14.3%

Block 5
Target: Histone acetyltransferase KAT6A, winged helix 1, GST fusion (KAT6A, Homo sapiens, UniProt Q92794, residues 1-85)
Technique: protein binding microarray
Form: double-stranded DNA, one strand shown
Medium: in vitro
Tested at: not given
Notes: 8-mer, flanks averaged, mean of 2 arrays, mostly near background
Relative to: not given
Direction: higher = stronger binding
Quantity: E-score
Residues (chain): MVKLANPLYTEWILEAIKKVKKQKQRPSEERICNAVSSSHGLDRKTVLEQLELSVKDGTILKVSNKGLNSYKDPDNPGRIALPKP
GCGTTACC: 0.267
CAACATAA: -0.0278
AACTTCAC: -0.146
CGTGCAAG: 0.0495
ATTTTGAA: -0.125
CATAAGTA: -0.085
AGGCTATC: -0.0422
GGCATCAA: -0.0144
CAGAATCC: -0.0399
ACATAGCG: 0.0827
ATTTCCCG: 0.182
GGCCACGA: -0.102
AGTGTCTC: -0.233
GAGAAAAA: -0.089
GAAAATCA: -0.0707
ACTGTCCG: 0.194
CGTCCTGA: -0.161
CTGACCAA: -0.232
ACTGAATG: 0.0353
ACATGGGC: -0.0715
CACAGTAA: 0.00632
CAAGCGGA: 0.136
AATTGTCG: -0.0294
CCTCGGTA: 0.0441
GGCCGGAC: 0.235

Block 6
Target: CCNB2, cyclin fold, Cln2 fusion (human)
Technique: yeast growth competition, sequencing
Medium: yeast
Notes: weak parent motif
Relative to: not given
Direction: higher = stronger binding
Quantity: normalised enrichment score
Starting sequence: CDKN1B docking peptide (human); PSACRNLFGPVDH
PSACRNAFGPVDH [L7A]: 0.183
PSACDNLFGPVDH [R5D]: -0.494
PSACHNLFGPVDH [R5H]: -0.0749
PSACRNLFGPVDF [H13F]: 0.306
PSACRNGFGPVDH [L7G]: 0.155
PSACRNLEGPVDH [F8E]: -0.173
PSACRNLFGYVDH [P10Y]: 0.488
PSWCRNLFGPVDH [A3W]: 0.31
PSACRNLFGPEDH [V11E]: -0.15
PSACRNLFGLVDH [P10L]: 0.539
PSACRNLFGPVGH [D12G]: -0.0113
PSACRNLHGPVDH [F8H]: 0.225
FSACRNLFGPVDH [P1F]: 0.322
PSACRDLFGPVDH [N6D]: -0.131
PSACRNVFGPVDH [L7V]: 0.317
PSACRNLFGPWDH [V11W]: 0.522
PSACRNLFGPVDS [H13S]: 0.228
PSACRPLFGPVDH [N6P]: -0.428
PSACRNLIGPVDH [F8I]: 0.395

Some of these lines once more (block 5):
GAGAAAAA: -0.089
GAAAATCA: -0.0707
ACTGTCCG: 0.194
CGTCCTGA: -0.161
CTGACCAA: -0.232
ACTGAATG: 0.0353
ACATGGGC: -0.0715
CACAGTAA: 0.00632
CAAGCGGA: 0.136
AATTGTCG: -0.0294
